# Measurements pooled from the literature.
# Protocols differ between the studies behind these lines. Several values in a cell are separate wells, animals, samples, runs or records. ± marks the error that the study gave.
# Genome polyprotein NS3 helicase domain: Genome polyprotein, NS3 helicase domain (Hepatitis C virus genotype 1b, UniProt Q9WMX2)
# ESR1: Estrogen receptor (ESR1, Homo sapiens, UniProt P03372)
# Chain of UniProt P03372 (whole entry, looked up): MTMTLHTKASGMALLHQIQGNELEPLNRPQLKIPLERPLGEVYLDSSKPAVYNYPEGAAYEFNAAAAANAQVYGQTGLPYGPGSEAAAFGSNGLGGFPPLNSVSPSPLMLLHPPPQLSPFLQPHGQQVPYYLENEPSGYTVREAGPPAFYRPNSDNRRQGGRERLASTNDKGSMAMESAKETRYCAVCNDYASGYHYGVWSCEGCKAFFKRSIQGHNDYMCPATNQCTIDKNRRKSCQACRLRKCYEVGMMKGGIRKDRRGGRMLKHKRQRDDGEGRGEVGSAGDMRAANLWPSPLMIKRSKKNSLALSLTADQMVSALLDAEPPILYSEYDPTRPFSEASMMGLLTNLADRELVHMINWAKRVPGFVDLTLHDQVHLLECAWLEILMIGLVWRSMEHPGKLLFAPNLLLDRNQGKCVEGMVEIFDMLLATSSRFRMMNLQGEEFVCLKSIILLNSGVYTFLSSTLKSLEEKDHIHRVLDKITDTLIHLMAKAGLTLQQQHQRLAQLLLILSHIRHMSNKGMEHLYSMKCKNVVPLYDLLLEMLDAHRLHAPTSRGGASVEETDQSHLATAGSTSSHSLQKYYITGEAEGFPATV
# Glutamate receptor 2: Glutamate receptor 2 (Homo sapiens, UniProt P42262)
# WD repeat-containing protein 91 WD40 domain, residues 392–747: WD repeat-containing protein 91, WD40 domain, residues 392–747 (Homo sapiens, UniProt A4D1P6)
# Chain of UniProt A4D1P6 (whole entry, looked up): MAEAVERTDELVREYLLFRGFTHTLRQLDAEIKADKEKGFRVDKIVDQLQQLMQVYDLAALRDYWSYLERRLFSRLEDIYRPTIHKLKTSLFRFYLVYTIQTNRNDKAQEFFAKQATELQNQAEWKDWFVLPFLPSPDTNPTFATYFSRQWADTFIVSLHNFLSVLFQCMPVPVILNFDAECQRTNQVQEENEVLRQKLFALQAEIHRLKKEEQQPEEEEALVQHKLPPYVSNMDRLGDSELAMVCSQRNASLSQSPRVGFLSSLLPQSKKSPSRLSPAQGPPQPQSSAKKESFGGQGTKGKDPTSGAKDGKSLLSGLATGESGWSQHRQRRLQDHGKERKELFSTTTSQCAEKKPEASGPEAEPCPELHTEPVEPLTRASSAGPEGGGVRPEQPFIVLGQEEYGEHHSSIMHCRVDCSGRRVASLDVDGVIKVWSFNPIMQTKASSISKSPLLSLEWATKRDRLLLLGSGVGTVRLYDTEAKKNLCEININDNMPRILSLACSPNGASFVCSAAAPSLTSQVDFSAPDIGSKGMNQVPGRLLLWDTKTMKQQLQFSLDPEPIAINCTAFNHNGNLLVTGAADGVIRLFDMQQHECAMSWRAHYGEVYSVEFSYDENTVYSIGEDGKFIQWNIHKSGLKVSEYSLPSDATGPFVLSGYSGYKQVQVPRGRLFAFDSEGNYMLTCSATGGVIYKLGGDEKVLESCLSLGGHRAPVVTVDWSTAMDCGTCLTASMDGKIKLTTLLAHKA
# T1: RNA aptamer; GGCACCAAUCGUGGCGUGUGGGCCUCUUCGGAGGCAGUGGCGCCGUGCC
# Chain of UniProt P51575 (whole entry, looked up): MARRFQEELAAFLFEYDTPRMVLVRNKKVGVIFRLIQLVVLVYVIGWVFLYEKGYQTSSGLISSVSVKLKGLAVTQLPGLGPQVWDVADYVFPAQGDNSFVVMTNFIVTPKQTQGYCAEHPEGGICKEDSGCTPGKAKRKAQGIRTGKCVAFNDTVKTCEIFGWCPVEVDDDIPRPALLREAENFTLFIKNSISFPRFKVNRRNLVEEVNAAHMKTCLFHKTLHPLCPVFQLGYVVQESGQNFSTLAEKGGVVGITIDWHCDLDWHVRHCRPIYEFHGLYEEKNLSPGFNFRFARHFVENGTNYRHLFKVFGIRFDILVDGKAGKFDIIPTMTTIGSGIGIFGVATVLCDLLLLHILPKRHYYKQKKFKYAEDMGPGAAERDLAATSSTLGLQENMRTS
# Chain of UniProt Q93015 (whole entry, looked up): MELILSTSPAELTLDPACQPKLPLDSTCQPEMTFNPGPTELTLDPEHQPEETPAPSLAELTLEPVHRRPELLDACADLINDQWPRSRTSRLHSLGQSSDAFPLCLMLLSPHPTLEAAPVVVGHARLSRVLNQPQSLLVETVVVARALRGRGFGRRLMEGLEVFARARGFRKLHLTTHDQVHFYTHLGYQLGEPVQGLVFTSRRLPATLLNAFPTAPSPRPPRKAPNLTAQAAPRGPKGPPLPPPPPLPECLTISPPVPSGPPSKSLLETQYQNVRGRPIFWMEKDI
SMILES,target,test,test system,conditions,scale,quantity,value
CSc1nc(N)c2ncn([C@@H]3O[C@H](COP(=O)(O)OP(=O)(O)O)[C@@H](O)[C@H]3O)c2n1,Genome polyprotein NS3 helicase domain,"DNA binding, inhibitor",hepatitis C virus,"100 µM, added: Cy5-dT15 DNA",,inhibition,33%
CC(C)(O)c1ccc(-c2nc3cc(NC(=O)c4cnc(Oc5ccccc5)nc4)ccc3c(=O)[nH]2)cc1,"TNKS2 (Homo sapiens, UniProt Q9H2K2)","PARylation, inhibitor, biochemical PARylation",,,reference: TNKS1 IC50 over TNKS2 IC50,selectivity ratio,49.2
CC[C@@H]1[C@H](F)C(=O)N[C@@H]1COc1nccc2cc(C(N)=O)c(OC)cc12,"MAP2K4 (Homo sapiens, UniProt P45985)","ATP-site probe binding, ActivX profiling",THP-1 cell lysate,"0.2 mM, Lys2 site",,inhibition,15.8%
N#Cc1cccc2c1CC[C@H]2NC(=O)c1ccc(SCc2cn3ccccc3n2)cc1,"WD repeat-containing protein 91, residues 392–747 (Homo sapiens, UniProt A4D1P6)",SPR dose-response titration,,"concentration not given, 1:1 binding model",,binding,117% and 113%
Nc1ncnc2c1ncn2[C@@H]1O[C@H](COP(=O)(O)CP(=O)(O)OP(=O)(O)O)[C@@H](O)[C@H]1O,"P2X purinoceptor 1 (P2RX1, Homo sapiens, UniProt P51575)",saturation binding,HEK293,130 nM,,specific binding,6030 CCPM and 8710 CCPM and 10900 CCPM and 10200 CCPM and 5410 CCPM
N[C@H](Cc1c[nH]c2ccccc12)C(=O)O,"Uncharacterized protein (Chromohalobacter israelensis, UniProt Q1QT90)","binder, thermal shift",,,,delta Tm,2.7 °C
COc1ccc(-c2oc3c(CC=C(C)C)c(O[C@@H]4O[C@H](CO)[C@@H](O)[C@H](O)[C@H]4O)cc(O)c3c(=O)c2O[C@@H]2O[C@@H](C)[C@H](O)[C@@H](O)[C@H]2O[C@@H]2O[C@@H](C)[C@H](O)[C@@H](O)[C@H]2O)cc1,ESR1,array formation,PRL-HeLa,,reference: EC50 ERβ over EC50 ERα,selectivity ratio,1.39
O=C1Nc2ccc(-c3ccc4cc(O)ccc4c3)cc2/C1=C\c1ccc(N2CCOCC2)cc1,"FGFR2 (Homo sapiens, UniProt P21802)",calculated from IC50,,,,binding free energy,-11.2 kcal/mol
CCCN1C[C@H](CSC)C[C@@H]2c3cccc4[nH]cc(c34)C[C@H]21,Glutamate receptor 2,"ion current, positive allosteric modulator, SyncroPatch patch clamp",HEK293,3 µM,,potentiation,89%
O=C(/C=C/c1ccc(O)c(O)c1)c1ccc(O)cc1O,ESR1,array formation,PRL-HeLa,,reference: EC50 ERβ over EC50 ERα,selectivity ratio,2.44
CC[C@H](C)[C@H](NC(=O)[C@H](CCCCN)NC(=O)CNC(=O)[C@@H](NC(=O)[C@@H](NC(=O)[C@H](CCSC)NC(=O)[C@H](Cc1c[nH]cn1)NC(=O)CN)[C@@H](C)O)C(C)C)C(=O)N[C@@H](Cc1ccc(O)cc1)C(=O)N[C@@H](C)C(=O)N[C@@H](C)C(=O)N[C@@H](C)C(=O)N[C@@H](CCSC)C(=O)N[C@H](C(=O)N[C@@H](CCSC)C(=O)N[C@@H](CCC(=O)O)C(=O)N[C@@H](Cc1ccc(O)cc1)C(=O)N[C@@H](Cc1ccc(O)cc1)C(=O)N[C@@H](CCCNC(=N)N)C(=O)N[C@@H](CCC(N)=O)C(=O)N[C@@H](CO)C(=O)N[C@@H](CCCCN)C(=O)N[C@@H](C)C(=O)N[C@@H](CCCCN)C(=O)N[C@@H](CCCCN)C(=O)N[C@@H](CC(C)C)C(=O)N[C@@H](CCC(N)=O)C(=O)N[C@@H](C)C(=O)N[C@@H](CCSC)C(=O)N[C@@H](CCCNC(=N)N)C(=O)O)[C@@H](C)CC,"Calmodulin-1, Ca2+-bound N-lobe (CALM1, Homo sapiens, UniProt P0DP23)","binding, isothermal titration calorimetry",,"pH 7.4, 15 °C, N-lobe, CaV2.1 IQ domain, added: Ca2+",,stoichiometry,0.95 ± 0.02
CC12CC3CC(C)(C1)CC(N)(C3)C2,Glutamate receptor 2,"ion current, positive allosteric modulator, SyncroPatch patch clamp",HEK293,30 µM,,potentiation,77%
O=C1Cc2c([nH]c3ccc(Br)cc23)-c2ccccc2N1,Genome polyprotein NS3 helicase domain,"DNA binding, inhibitor",hepatitis C virus,"100 µM, added: Cy5-dT15 DNA",,inhibition,1%
CC(C)(C)OC(=O)N1CCCC(c2ccc(C(=O)N3CCC(C#N)CC3)cc2)C1 (stereo not drawn),"WD repeat-containing protein 91 WD40 domain, residues 392–747","binding, SPR single-concentration screen",,45 µM,,SPR response,4.5 RU and -3.8 RU
Cc1cccc(N2CC(C(=O)O)CC2=O)c1 (stereo not drawn),"WD repeat-containing protein 91 (Homo sapiens, UniProt A4D1P6)","binding, affinity selection mass spectrometry",,,reference: other proteins in batch,fold enrichment,0.913
N#Cc1cccc2c1CC[C@H]2NC(=O)c1ccc(Nc2ncnc3ccccc23)cc1,"WD repeat-containing protein 91 WD40 domain, residues 392–747",SPR,,45 µM,,binding,94% and 75%
CN(CCO)c1ccc(/C=C(\C#N)c2ccc(C#N)cc2)cc1,"T1, RNA aptamer","fluorescence titration, Hill fit",,apparent,,Kd,140 nM
C[C@]12CC[C@@H]3c4ccc(O)cc4C[C@@H](CCCCCCCCC[S+]([O-])CCCC(F)(F)C(F)(F)F)[C@H]3[C@@H]1CC[C@@H]2O (stereo partly drawn),ESR1,"antagonist, CALUX reporter",U2OS,3e-10 µg/mL,,antagonist response,49.8%
C/C(=C\c1ccc(C(=O)O)cc1)c1ccc2c(c1)C(C)(C)CCC2(C)C,Genome polyprotein NS3 helicase domain,"DNA binding, inhibitor",hepatitis C virus,"100 µM, added: Cy5-dT15 DNA",,inhibition,0%
CCN(CC)Cc1cn(Cc2ccc(C(=O)N[C@@H]3CCc4c(C#N)cccc43)cc2)nn1,"WD repeat-containing protein 91 WD40 domain, residues 392–747","binding, SPR single-concentration screen",,45 µM,,SPR response,49.2 RU and 51.7 RU
COc1cc(/C=C2\CCC/C(=C\c3ccc(O)c(OC)c3)C2=O)ccc1O,haemin,"binding, isothermal titration calorimetry",,"pH 7.4, 37 °C",,ΔG,-9.003 ± 0.0741 kcal/mol
CC(=O)N[C@H](C(=O)N[C@@H](CC(N)=O)C(=O)N[C@@H](CCCCN)C(=O)N1CCC[C@H]1C(=O)N[C@@H](CC(C)C)C(=O)N1CCC[C@H]1C(=O)N1CCC[C@H]1C(=O)N[C@@H](CC(C)C)C(=O)N1CCC[C@H]1C(=O)N[C@H](C(=O)N[C@@H](C)C(N)=O)C(C)C)C(C)C,"Tyrosine-protein kinase Fyn, SH3 domain (FYN, Homo sapiens, UniProt P06241)","ligand binding, FTIR spectroscopy, refers to: asymmetric stretch band B",,"pH 7.0, FYN complex, added: 4 mM peptide",,peak area,76 ± 4%
CN(C)CC/C=C1/c2ccccc2Sc2ccc(Cl)cc21,Genome polyprotein NS3 helicase domain,"DNA binding, inhibitor",hepatitis C virus,"100 µM, added: Cy5-dT15 DNA",,inhibition,0%
N=C(N)NCCC[C@H](N)C(=O)O,"N-alpha-acetyltransferase 80 (NAA80, Homo sapiens, UniProt Q93015)","substrate, DTNB",,"2 mM, 30 min, 37 °C, added: acetyl-CoA 500 µM",,product formation,1.14 µM
O=C(O)/C=C(/CC(=O)O)C(=O)O,"Egl nine homolog 1 (EGLN1, Homo sapiens, UniProt Q9GZT9)","inhibitor, CPMG NMR displacement",,"400 µM, pH 7.5, added: 10 µM reporter ligand",,binding,no binding
CCN1CCN(c2cc(N3CCN(CC)CC3)nc(NCCNc3ccnc4cc(Cl)ccc34)n2)CC1,"Nuclear receptor subfamily 4 group A member 3, ligand-binding domain (Homo sapiens, UniProt Q92570)","reporter gene, Gal4 hybrid reporter",,1 µM,reference: vehicle,activation,1.04 ± 0.01 fold
C=C1CCN([C@H](CC(C)C)C(=O)NCc2ccc(Cl)c(Cl)c2)S(=O)(=O)c2ccccc21,"DAPK1 (Homo sapiens, UniProt P53355)","enzyme activity, inhibitor, ADP-Glo",,100 µM,,kinase activity,no effect
O=c1nc(SCc2cc(F)cc(C(F)(F)F)c2)nc(SCc2csc3ccc(Cl)cc23)[nH]1,"TOP2A (Homo sapiens, UniProt P11388)",DNA relaxation,,"1.95 µM, replicate 2",,relaxed DNA,95.4%
O=S(=O)(O)C1CCNCC1,"SLC6A6 (Homo sapiens, UniProt P31641, Y138A)","binding, microscale thermophoresis",,"32.7 nM, fitted curve",higher = more binding,fraction bound,0
N[C@@H](C(=O)N[C@@H]1C(=O)N2C(C(=O)O)=C(Cl)CS[C@H]12)c1ccccc1,Genome polyprotein NS3 helicase domain,"DNA binding, inhibitor",hepatitis C virus,"100 µM, added: Cy5-dT15 DNA",,inhibition,0%
Nc1nc2c(ncn2[C@@H]2O[C@@H]3COP(=O)(O)O[C@H]3[C@H]2O)c(=O)[nH]1,"Cone cGMP-gated channel (Morone saxatilis, UniProt Q3I0N1+Q3I0N2)","channel current, agonist, suction electrode",cone outer segments,added: 2 µM Ca2+,,Hill coefficient,2.21 ± 0.31
Clc1ccc(-n2c(-c3ccccc3Cl)nc3c(N4CCC(Nc5ccccc5)CC4)ncnc32)cc1,"CNR1 (Homo sapiens, UniProt P21554)","binding, [3H]CP55940 displacement",,,reference: Ki CB2 over Ki CB1,selectivity ratio,> 1600
COc1cc(NC(=O)c2ccccn2)ccc1/N=N/c1ccccc1Cl,"GRM5 (Homo sapiens, UniProt P41594)","positive allosteric modulator, IP accumulation",HEK293,"30 µM, in the dark, added: low-dose orthosteric agonist",,activation,4.89%

# A few entries again:
SMILES,target,test,test system,conditions,scale,quantity,value
CC(C)(C)OC(=O)N1CCCC(c2ccc(C(=O)N3CCC(C#N)CC3)cc2)C1 (stereo not drawn),"WD repeat-containing protein 91 WD40 domain, residues 392–747","binding, SPR single-concentration screen",,45 µM,,SPR response,4.5 RU and -3.8 RU
CC(=O)N[C@H](C(=O)N[C@@H](CC(N)=O)C(=O)N[C@@H](CCCCN)C(=O)N1CCC[C@H]1C(=O)N[C@@H](CC(C)C)C(=O)N1CCC[C@H]1C(=O)N1CCC[C@H]1C(=O)N[C@@H](CC(C)C)C(=O)N1CCC[C@H]1C(=O)N[C@H](C(=O)N[C@@H](C)C(N)=O)C(C)C)C(C)C,"Tyrosine-protein kinase Fyn, SH3 domain (FYN, Homo sapiens, UniProt P06241)","ligand binding, FTIR spectroscopy, refers to: asymmetric stretch band B",,"pH 7.0, FYN complex, added: 4 mM peptide",,peak area,76 ± 4%
